Experimental data gathered from unrelated publications.
± gives the spread as reported.
Secreted effector protein C403A/D356A: Secreted effector protein (Yersinia pestis, UniProt O68720, C403A/D356A)
Scn4a: Sodium channel protein type 4 subunit alpha (Scn4a, Rattus norvegicus, UniProt P15390)
OPRL1: Nociceptin receptor (OPRL1, Homo sapiens, UniProt P41146)

The chains behind the UniProt entries cited, without tags or fusion partners. A line that says so, or that is headed by a name, gives the form on record, which may keep a tag or linker. Residues count along the entry.
UniProt P41146, whole entry: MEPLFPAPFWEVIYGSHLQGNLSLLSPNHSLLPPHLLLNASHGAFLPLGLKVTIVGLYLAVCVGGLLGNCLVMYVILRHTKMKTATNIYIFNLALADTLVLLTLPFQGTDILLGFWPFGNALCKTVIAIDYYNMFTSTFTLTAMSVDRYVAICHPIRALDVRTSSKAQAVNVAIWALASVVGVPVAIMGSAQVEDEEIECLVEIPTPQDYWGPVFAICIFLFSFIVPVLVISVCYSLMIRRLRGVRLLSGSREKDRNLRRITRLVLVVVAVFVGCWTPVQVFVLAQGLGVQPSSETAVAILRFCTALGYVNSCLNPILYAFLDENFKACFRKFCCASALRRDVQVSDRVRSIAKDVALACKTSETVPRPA
UniProt P17787, whole entry, looked up: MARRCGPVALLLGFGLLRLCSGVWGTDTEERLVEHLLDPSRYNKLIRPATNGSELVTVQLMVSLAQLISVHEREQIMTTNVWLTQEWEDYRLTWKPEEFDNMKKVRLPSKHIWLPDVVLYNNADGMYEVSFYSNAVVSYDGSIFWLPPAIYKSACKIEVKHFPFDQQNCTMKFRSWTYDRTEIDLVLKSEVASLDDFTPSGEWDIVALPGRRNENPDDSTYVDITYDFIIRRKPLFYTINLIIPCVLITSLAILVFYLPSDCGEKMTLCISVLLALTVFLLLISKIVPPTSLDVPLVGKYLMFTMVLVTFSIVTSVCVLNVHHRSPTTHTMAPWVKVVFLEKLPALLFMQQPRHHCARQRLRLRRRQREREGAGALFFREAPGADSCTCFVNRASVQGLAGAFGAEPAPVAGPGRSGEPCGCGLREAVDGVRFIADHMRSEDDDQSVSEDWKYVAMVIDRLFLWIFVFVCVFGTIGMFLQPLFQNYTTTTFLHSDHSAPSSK
UniProt P32297, whole entry, looked up: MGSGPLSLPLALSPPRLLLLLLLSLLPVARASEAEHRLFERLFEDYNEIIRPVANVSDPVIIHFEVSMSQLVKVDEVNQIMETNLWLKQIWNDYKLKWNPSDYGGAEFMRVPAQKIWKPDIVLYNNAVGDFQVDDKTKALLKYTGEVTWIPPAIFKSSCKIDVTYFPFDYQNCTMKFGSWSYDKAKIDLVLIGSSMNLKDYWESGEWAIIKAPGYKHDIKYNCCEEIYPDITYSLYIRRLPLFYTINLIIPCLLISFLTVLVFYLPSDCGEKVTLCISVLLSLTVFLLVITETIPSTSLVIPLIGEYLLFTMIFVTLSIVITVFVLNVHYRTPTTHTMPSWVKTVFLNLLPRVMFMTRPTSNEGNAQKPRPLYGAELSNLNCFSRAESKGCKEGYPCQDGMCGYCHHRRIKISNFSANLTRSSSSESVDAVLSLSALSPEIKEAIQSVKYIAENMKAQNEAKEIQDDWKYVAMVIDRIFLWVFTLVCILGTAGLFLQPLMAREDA
UniProt P04775, whole entry: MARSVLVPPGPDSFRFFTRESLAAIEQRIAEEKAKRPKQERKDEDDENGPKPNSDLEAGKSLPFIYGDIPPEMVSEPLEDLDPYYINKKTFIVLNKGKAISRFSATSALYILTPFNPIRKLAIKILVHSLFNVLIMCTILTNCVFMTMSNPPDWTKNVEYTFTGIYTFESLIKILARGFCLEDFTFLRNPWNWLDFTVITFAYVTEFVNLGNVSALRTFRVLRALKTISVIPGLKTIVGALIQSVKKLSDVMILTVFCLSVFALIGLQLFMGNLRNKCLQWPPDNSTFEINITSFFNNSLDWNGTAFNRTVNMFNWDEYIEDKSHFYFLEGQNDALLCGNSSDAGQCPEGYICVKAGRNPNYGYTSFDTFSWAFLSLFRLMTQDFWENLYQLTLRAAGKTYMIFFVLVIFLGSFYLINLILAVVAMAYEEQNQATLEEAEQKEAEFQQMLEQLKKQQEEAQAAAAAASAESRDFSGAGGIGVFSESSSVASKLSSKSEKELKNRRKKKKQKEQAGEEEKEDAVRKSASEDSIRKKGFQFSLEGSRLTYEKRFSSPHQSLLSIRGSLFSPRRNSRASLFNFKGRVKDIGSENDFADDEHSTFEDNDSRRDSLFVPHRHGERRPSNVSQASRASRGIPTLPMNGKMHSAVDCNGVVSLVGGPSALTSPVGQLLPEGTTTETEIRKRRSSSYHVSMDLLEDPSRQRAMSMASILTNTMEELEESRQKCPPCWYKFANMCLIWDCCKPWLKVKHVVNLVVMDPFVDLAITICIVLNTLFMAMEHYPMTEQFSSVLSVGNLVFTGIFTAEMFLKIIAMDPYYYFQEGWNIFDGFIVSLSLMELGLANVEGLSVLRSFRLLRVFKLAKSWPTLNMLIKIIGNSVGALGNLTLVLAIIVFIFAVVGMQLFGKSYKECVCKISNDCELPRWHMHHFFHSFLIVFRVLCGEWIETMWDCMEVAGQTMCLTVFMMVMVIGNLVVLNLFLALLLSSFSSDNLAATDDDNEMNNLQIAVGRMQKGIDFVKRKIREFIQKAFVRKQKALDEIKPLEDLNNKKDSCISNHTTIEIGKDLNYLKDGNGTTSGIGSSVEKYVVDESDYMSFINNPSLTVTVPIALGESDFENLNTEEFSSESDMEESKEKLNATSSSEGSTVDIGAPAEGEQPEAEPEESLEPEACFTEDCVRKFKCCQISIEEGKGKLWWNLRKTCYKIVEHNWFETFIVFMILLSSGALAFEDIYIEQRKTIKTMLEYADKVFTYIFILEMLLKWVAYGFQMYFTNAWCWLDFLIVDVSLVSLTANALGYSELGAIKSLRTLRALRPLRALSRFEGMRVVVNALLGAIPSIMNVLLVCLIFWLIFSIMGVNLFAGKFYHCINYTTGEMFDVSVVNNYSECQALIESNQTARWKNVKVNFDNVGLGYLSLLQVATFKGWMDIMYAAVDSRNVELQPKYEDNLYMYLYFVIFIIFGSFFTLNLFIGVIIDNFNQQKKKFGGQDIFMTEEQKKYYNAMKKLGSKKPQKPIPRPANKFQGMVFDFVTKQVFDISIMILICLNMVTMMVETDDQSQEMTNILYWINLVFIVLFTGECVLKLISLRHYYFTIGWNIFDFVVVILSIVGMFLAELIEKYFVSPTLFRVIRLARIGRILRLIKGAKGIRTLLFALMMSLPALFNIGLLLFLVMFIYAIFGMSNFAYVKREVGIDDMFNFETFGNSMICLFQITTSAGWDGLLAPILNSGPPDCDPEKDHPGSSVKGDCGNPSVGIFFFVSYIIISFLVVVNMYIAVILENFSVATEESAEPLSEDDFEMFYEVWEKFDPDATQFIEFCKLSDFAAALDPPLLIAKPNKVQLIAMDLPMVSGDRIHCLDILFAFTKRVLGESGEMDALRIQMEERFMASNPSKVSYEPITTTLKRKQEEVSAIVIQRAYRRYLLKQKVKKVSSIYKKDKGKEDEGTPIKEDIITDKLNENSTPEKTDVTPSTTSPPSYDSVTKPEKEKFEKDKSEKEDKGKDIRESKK
UniProt P08510, 1-655 with tags or gaps DEL6-46: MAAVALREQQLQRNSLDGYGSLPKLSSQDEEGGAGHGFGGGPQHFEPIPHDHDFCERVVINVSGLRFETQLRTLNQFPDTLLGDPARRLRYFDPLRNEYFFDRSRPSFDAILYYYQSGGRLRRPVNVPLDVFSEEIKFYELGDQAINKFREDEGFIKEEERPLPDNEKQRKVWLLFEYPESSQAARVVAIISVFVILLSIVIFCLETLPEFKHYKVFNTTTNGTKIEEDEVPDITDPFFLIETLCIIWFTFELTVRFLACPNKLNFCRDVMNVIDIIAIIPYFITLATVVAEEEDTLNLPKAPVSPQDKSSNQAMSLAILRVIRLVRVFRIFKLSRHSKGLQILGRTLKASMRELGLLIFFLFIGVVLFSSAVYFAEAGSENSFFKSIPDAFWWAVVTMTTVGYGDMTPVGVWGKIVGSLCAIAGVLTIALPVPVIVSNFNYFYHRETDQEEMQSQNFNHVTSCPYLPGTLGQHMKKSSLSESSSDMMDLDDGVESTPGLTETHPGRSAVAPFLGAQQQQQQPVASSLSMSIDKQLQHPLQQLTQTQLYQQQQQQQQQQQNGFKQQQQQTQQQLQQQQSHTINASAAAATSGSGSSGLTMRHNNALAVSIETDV
UniProt Q9Y6W6, 321-464 limits assumed: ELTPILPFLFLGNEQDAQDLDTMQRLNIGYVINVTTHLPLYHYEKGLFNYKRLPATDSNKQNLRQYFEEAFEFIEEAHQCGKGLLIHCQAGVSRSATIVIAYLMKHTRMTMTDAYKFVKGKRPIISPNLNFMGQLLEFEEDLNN
UniProt Q8WSF8, 18-236 limits assumed: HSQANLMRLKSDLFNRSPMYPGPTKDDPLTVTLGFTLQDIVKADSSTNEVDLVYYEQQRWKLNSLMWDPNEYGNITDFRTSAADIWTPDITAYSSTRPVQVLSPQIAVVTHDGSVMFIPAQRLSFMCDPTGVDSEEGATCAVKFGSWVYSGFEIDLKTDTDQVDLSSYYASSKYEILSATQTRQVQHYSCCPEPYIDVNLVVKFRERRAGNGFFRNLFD
UniProt P26045, 646-901 limits assumed: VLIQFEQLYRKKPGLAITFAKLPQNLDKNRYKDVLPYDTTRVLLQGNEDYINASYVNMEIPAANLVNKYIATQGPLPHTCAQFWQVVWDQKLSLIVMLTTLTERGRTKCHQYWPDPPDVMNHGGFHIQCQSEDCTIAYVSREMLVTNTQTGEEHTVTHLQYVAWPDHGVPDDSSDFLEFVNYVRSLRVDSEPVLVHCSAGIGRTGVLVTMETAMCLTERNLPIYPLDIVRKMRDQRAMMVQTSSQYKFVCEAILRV
UniProt P08104, whole entry: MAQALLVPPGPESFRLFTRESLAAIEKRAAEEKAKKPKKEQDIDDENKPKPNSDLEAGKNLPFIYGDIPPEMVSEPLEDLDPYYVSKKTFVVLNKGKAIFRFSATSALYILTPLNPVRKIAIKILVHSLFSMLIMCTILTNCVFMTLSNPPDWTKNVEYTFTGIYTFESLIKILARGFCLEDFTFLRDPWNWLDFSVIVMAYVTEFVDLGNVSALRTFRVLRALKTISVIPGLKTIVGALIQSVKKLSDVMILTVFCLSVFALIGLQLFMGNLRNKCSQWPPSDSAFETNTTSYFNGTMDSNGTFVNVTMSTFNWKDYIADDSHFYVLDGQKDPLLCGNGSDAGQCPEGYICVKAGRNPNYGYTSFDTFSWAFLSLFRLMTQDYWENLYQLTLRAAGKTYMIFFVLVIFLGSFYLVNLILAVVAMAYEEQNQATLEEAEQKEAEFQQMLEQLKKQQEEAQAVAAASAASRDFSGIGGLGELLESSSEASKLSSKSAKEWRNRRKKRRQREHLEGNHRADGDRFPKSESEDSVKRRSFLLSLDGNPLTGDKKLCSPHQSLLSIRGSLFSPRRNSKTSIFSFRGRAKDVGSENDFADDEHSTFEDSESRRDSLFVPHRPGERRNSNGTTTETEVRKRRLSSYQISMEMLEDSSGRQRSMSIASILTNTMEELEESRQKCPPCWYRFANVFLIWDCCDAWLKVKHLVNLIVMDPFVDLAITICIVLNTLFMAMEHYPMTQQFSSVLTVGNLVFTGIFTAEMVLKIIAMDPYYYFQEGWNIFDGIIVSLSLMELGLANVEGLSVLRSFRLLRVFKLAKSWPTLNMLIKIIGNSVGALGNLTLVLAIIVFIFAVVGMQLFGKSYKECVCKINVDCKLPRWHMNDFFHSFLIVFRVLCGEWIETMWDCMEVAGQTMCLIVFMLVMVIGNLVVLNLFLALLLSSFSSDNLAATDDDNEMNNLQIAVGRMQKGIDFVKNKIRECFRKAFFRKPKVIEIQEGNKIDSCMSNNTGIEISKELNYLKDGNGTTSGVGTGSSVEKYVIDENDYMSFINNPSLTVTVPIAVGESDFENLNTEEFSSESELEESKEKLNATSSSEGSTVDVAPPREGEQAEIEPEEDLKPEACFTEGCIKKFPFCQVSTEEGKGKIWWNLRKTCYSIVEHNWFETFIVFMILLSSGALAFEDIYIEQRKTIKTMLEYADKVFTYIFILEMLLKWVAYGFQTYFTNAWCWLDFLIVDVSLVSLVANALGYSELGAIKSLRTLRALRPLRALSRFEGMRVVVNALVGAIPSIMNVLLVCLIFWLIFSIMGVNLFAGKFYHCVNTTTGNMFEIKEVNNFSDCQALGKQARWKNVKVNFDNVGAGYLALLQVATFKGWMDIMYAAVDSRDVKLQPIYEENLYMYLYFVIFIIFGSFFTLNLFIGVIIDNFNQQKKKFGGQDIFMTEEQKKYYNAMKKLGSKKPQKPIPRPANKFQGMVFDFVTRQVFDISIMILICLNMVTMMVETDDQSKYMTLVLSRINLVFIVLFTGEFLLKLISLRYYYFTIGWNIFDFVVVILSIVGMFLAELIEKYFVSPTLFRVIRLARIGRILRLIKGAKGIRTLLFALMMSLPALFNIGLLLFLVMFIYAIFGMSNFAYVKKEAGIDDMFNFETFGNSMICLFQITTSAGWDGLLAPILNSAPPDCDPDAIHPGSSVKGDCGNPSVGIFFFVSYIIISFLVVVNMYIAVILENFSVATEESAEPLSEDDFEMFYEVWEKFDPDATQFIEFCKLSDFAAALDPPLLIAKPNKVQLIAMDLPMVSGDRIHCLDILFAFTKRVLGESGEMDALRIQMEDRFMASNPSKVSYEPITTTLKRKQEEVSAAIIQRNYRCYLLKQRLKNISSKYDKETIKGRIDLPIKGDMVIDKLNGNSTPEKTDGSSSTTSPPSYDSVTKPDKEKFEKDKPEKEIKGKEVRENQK

`CC[C@H](C)[C@H](NC(=O)[C@H](CC(C)C)NC(=O)[C@H](Cc1ccc(OP(=O)(O)O)cc1)NC(=O)[C@H](CCC(=O)O)NC(=O)[C@H](CC(=O)O)NC(=O)[C@H](C)NC(=O)[C@H](CC(=O)O)NC(=O)[C@@H](NC(=O)[C@H](CC(C)C)NC(=O)CCCC[C@@H]1SC[C@@H]2NC(=O)N[C@@H]21)C(C)C)C(=O)N1CCC[C@H]1C(=O)N[C@@H](CCC(N)=O)C(=O)N[C@@H](CCC(N)=O)C(=O)NCC(=O)O` gave a ΔG of -5.28 kcal/mol (Secreted effector protein C403A/D356A; surface plasmon resonance; immobilized protein).
The kpol of `Nc1ncnc2c1ncn2[C@@H]1O[C@H](COP(=O)(O)OP(=O)(O)OP(=O)(O)O)[C@@H](O)[C@H]1O` is reported as 4.9 ± 0.4 s⁻¹ (Genome polyprotein, RNA polymerase 3D (Human poliovirus 1 Mahoney, UniProt P03300, K2107H); substrate; pH 7.5).
For `CC[C@H](C)[C@@H]1NC(=O)[C@H](CCC(=O)O)NC(=O)[C@@H]2CCCN2C(=O)[C@H](Cc2c[nH]cn2)NC(=O)[C@H](CC(=O)O)NC(=O)[C@H](C(C)C)NC(=O)[C@H](CC(N)=O)NC(=O)[C@@H]2CSSC[C@H](NC(=O)[C@H](CCC(N)=O)NC(=O)[C@@H]3CCCN3C(=O)[C@@H](N)CCCNC(=N)N)C(=O)N[C@@H](CSSC[C@@H](C(N)=O)NC1=O)C(=O)N[C@@H](CO)C(=O)N[C@@H](Cc1c[nH]cn1)C(=O)N1CCC[C@H]1C(=O)N[C@@H](C)C(=O)N2`, the maximal inhibition was 96% (Neuronal acetylcholine receptor; alpha3/beta2 (Homo sapiens, UniProt P17787+P32297); ACh-evoked current, antagonist, two-electrode voltage clamp; Xenopus oocytes; 5 min, pH 7.4, holding potential -70 mV).
With `CCCCCCCCN1CC(=O)N[C@@H](Cc2c[nH]c3ccccc23)C(=O)N[C@H]2CSSC[C@H](N)C(=O)N[C@H]3CSSC[C@H](NC(=O)[C@H](CCCNC(=N)N)NC(=O)[C@H](CO)NC(=O)[C@H](Cc4c[nH]cn4)NC(=O)[C@H](CC(=O)O)NC(=O)[C@H](CCCNC(=N)N)NC2=O)C(=O)N[C@H](C(N)=O)CSSC[C@H](NC(=O)[C@H](CC(N)=O)NC3=O)C(=O)N[C@@H](CO)C(=O)N[C@@H](CO)C1=O` the kobs was 0.26 ± 0.04 min⁻¹ (Scn2a (Rattus norvegicus, UniProt P04775); sodium current, blocker, two-electrode voltage clamp; Xenopus oocytes; 10 µM).
`CC[C@H](C)[C@@H]1NC(=O)[C@H](CCCNC(=N)N)NC(=O)[C@@H](N)CSSC[C@@H]2NC(=O)[C@@H]3CSSC[C@@H](C(=O)N[C@H](C(=O)O)C(C)C)NC(=O)[C@H](CCCCN)NC(=O)[C@H](CC(N)=O)NC(=O)[C@H](Cc4ccccc4)NC(=O)[C@H](CCCNC(=N)N)NC(=O)[C@H](CC(N)=O)NC(=O)[C@H](CSSC[C@H](NC(=O)[C@H](CCCCN)NC(=O)[C@H](CCC(N)=O)NC(=O)[C@H](CC(N)=O)NC(=O)[C@@H]4C[C@@H](O)CN4C1=O)C(=O)N[C@@H](Cc1ccccc1)C(=O)N[C@@H](CCC(N)=O)C(=O)N[C@@H](Cc1c[nH]cn1)C(=O)N[C@@H](CC(C)C)C(=O)N[C@@H](CC(=O)O)C(=O)N[C@@H](CC(=O)O)C(=O)N3)NC(=O)[C@H](CCCCN)NC(=O)[C@H](CCCNC(=N)N)NC(=O)[C@H](CO)NC2=O` has a residence time of about 150 ms (Sh (Drosophila melanogaster, UniProt P08510, del6-46); potassium current, patch clamp; concentration not given, -40 mV).
The kon of `O=P(O)(O)C(F)(F)c1cccc(-c2ccc(CO/N=C/c3ccoc3)cc2)c1` is reported as 104 M⁻¹ s⁻¹ (Secreted effector protein C403A/D356A; surface plasmon resonance; immobilized protein).
The kcat of `CC(=O)N[C@@H](Cc1c[nH]cn1)C(=O)N[C@H](C(=O)NCC(=O)N[C@@H](Cc1ccccc1)C(=O)N[C@@H](CC(C)C)C(=O)N[C@H](C(=O)N[C@@H](CCC(=O)O)C(=O)N[C@@H](Cc1cc(=O)oc2cc(OP(=O)(O)O)ccc12)C(=O)N[C@H](C(=O)N[C@@H](C)C(=O)N[C@H](C(=O)N[C@@H](CCCNC(=N)N)C(=O)N[C@@H](Cc1c[nH]c2ccccc12)C(N)=O)[C@@H](C)O)C(C)C)[C@@H](C)O)[C@@H](C)O` is reported as 0.16 s⁻¹ (Dual specificity protein phosphatase 10 (Homo sapiens, UniProt Q9Y6W6); substrate; pH 6, ERK1/2 activation-loop peptide).
With `C[C@H](NC(=O)[C@@H]1CSSC[C@@H]2NC(=O)[C@H](CCCCN)NC(=O)[C@H](CCCCN)NC(=O)[C@@H]3C[C@@H](O)CN3C(=O)[C@@H]3C[C@@H](O)CN3C(=O)[C@H]([C@@H](C)O)NC(=O)[C@@H]3CSSC[C@H](NC(=O)[C@H](CCCNC(=N)N)NC(=O)[C@H](CCC(N)=O)NC(=O)[C@@H]4C[C@@H](O)CN4C(=O)[C@H](CCCCN)NC(=O)[C@H](CSSC[C@H](NC(=O)[C@H](CC(=O)O)NC(=O)[C@@H](N)CCCNC(=N)N)C(=O)N3)NC(=O)[C@H](CCC(N)=O)NC(=O)[C@H](CCCNC(=N)N)NC(=O)[C@H](CC(=O)O)NC(=O)[C@H](CCCCN)NC2=O)C(=O)N1)C(N)=O` the inhibition was 98% (Scn4a; sodium current; Xenopus oocytes; 1 µM).
For `O=C1Cc2ccccc2N1C1CCN([C@@H]2CC[C@H]3CCCc4cccc2c43)CC1`, the potency ratio was 105 (OPRL1; β-arrestin 2 recruitment, BRET; HEK293; relative to: compound EC50 over N/OFQ EC50).
The block of `C[C@@H]1NC(=O)[C@H](Cc2c[nH]c3ccccc23)NC(=O)[C@H](CCCCN)NC(=O)COCCNC(=O)[C@@H]2CSSC[C@@H](C(N)=O)NC(=O)[C@H](CSSC[C@H](N)C(=O)N[C@@H](CC(N)=O)C(=O)N2)NC(=O)[C@H](CCCNC(=N)N)NC(=O)[C@H](CO)NC(=O)[C@H](Cc2c[nH]cn2)NC(=O)[C@H](CC(=O)O)NC(=O)[C@H](CCCNC(=N)N)NC1=O` is reported as 70 ± 2% (Scn4a; sodium current, blocker, two-electrode voltage clamp; Xenopus oocytes; 1 µM).
The selectivity ratio of `C=C1CCCC2=NC[C@H](C)[C@@H](C)C[C@@]23CCC(C(=O)O)=C[C@@H]3[C@@H]2O[C@]3(C[C@H]4CCC[C@@]5(CC[C@@]6(O[C@@H](CC[C@@]6(C)O)C1)O5)O4)C[C@@H](C)[C@@H](O)[C@H]2O3` is reported as over 3400 fold (Soluble acetylcholine receptor (Aplysia californica, UniProt Q8WSF8); relative to: L-AChBP Kd over Soluble acetylcholine receptor Kd).
`CC(=O)N[C@@H](Cc1c[nH]cn1)C(=O)N[C@@H](CC(=O)O)C(=O)NCC(=O)N[C@@H](CC(C)C)C(=O)N[C@@H](Cc1cc(=O)oc2cc(OP(=O)(O)O)ccc12)C(=O)N[C@@H](CCC(N)=O)C(=O)NCC(=O)N[C@@H](CC(C)C)C(=O)N[C@@H](CO)C(=O)N[C@H](C(=O)N[C@@H](C)C(=O)N[C@H](C(=O)N[C@@H](CCCCN)C(=O)N[C@@H](CC(=O)O)C(=O)N[C@H](C(=O)N[C@@H](Cc1ccc(O)cc1)C(=O)N[C@@H](CC(=O)O)C(=O)N[C@@H](C)C(=O)N[C@@H](CC(C)C)C(=O)N[C@@H](Cc1c[nH]cn1)C(N)=O)[C@@H](C)O)[C@@H](C)O)[C@@H](C)O` has a kcat of 1.12 s⁻¹ (PTPN3 (Homo sapiens, UniProt P26045); substrate; pH 6, TCR zeta-chain ITAM peptide).
`CCOP(=O)(OCC)ON1C(=O)c2cccc3cccc(c23)C1=O` gave an IC50 of 44 nM (Ache (Rattus norvegicus, UniProt P37136); enzyme activity, inhibitor, discontinuous Ellman; rat, postnatal day 70, rat lung homogenate; 15 min, 37 °C).
With `CNC(=O)CC1C(=O)N(C2CCN([C@H]3CC[C@@H](C(C)C)CC3)CC2)c2ccccc21` (stereo partly shown) the Emax was 5.37 ± 0.68 (OPRL1; G protein activation, GTPγS binding; CHO membranes; unit not given; relative to: basal binding).
The inhibition of `Cc1ccc(S(=O)(=O)Nc2cccc(C(=O)NC3CCN(c4ncnc5[nH]cnc45)CC3)c2)cc1` is reported as 5.18% (Replicase polyprotein 1ab, nsp14 ExoN with nsp10 (rep, Severe acute respiratory syndrome coronavirus 2, UniProt P0DTD1); ExoN activity; 3.125 µM).
The inhibition of `O=C(O)C(O)=CC(=O)c1cc(Oc2ccccc2)cc(Oc2ccccc2)c1` is reported as 8% (Replicase polyprotein 1ab, nsp14 with nsp10 (rep, Severe acute respiratory syndrome coronavirus 2, UniProt P0DTD1); exonuclease activity, inhibitor; 20 µM).
`CC(C)[C@H]1CC[C@@H](N2CCC3(CC2)C(=O)NCN3c2ccccc2)CC1` gave an intrinsic activity of 0.43 (OPRL1; β-arrestin 2 recruitment, BRET; HEK293; concentration not given, unit not given; relative to: compound Emax over N/OFQ Emax).
With `O=C(C1CCNC1)N1CCc2c(F)cc(F)cc21` (stereo not shown) the Vmax was 0.082 absorbance units/min (ache (Electrophorus electricus, UniProt O42275); enzyme activity, inhibitor, Ellman; 120 µM, with: acetylthiocholine iodide).
For `CC(C)[C@H](N)C(=O)NCC(=O)N[C@@H](CCC(=O)O)C(=O)N[C@@H](CCCNC(=N)N)C(=O)N[C@@H](C)C(=O)N[C@H]1CSSC[C@@H]2NC(=O)[C@H](CCCNC(=N)N)NC(=O)[C@H](CO)NC(=O)[C@H](Cc3c[nH]cn3)NC(=O)[C@H](CC(=O)O)NC(=O)[C@H](CCCNC(=N)N)NC(=O)[C@H](C)NC(=O)[C@H](Cc3c[nH]c4ccccc34)NC(=O)[C@H](CCCNC(=N)N)NC(=O)CNC(=O)[C@H](CSSC[C@@H](C(N)=O)NC2=O)NC(=O)CNC(=O)[C@H](CCCNC(=N)N)NC(=O)[C@H](CCCCN)NC(=O)CNC(=O)[C@H](CC(N)=O)NC(=O)[C@H](CCCCN)NC1=O`, the Kd ratio was 79 (Scn3a (Rattus norvegicus, UniProt P08104); sodium current, two-electrode voltage clamp; relative to: analogue over wild-type µ-conotoxin BuIIIB).

A few entries again:
With `C[C@H](NC(=O)[C@@H]1CSSC[C@@H]2NC(=O)[C@H](CCCCN)NC(=O)[C@H](CCCCN)NC(=O)[C@@H]3C[C@@H](O)CN3C(=O)[C@@H]3C[C@@H](O)CN3C(=O)[C@H]([C@@H](C)O)NC(=O)[C@@H]3CSSC[C@H](NC(=O)[C@H](CCCNC(=N)N)NC(=O)[C@H](CCC(N)=O)NC(=O)[C@@H]4C[C@@H](O)CN4C(=O)[C@H](CCCCN)NC(=O)[C@H](CSSC[C@H](NC(=O)[C@H](CC(=O)O)NC(=O)[C@@H](N)CCCNC(=N)N)C(=O)N3)NC(=O)[C@H](CCC(N)=O)NC(=O)[C@H](CCCNC(=N)N)NC(=O)[C@H](CC(=O)O)NC(=O)[C@H](CCCCN)NC2=O)C(=O)N1)C(N)=O` the inhibition was 98% (Scn4a; sodium current; Xenopus oocytes; 1 µM).
For `O=C1Cc2ccccc2N1C1CCN([C@@H]2CC[C@H]3CCCc4cccc2c43)CC1`, the potency ratio was 105 (OPRL1; β-arrestin 2 recruitment, BRET; HEK293; relative to: compound EC50 over N/OFQ EC50).
